{"data": "Measured values gathered from unrelated publications", "note": "Each numbered part is a random draw from the data of one study; scales do not carry over between parts. Changes are numbered by the printed parent chain."}
{"data": "Series 1", "target": "RNA binding protein fox-1 homolog 2, RRM domain, GST-SBP tag (RBFOX2, Homo sapiens, UniProt O43251-10, residues 100-194)", "method": "RNA Bind-n-Seq", "molecule type": "RNA", "medium": "in vitro", "concentration": "365 nM", "setting": "natural RNA segment, single round, ends assumed", "reference": "no-protein control", "reading": "higher = stronger binding", "shared flanks, not repeated": "GGGAGUUCUACAGUCCGACGAUC … UGGAAUUCUCGGGUGCCAA", "Target sequence (chain)": "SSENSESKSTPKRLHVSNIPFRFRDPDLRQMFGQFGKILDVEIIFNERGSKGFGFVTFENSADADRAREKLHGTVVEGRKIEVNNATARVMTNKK"}
{"Sequence": "CGGCGGUGGUGCAGAAGAGAGCCAGUGGCCAGUGACCACACAGCUCCUCCAUGCCUGACCAACAGGCCCAGCUUUCCCUGCCAGGCCCUUUGCACUGAGGACACAGAUCC", "RBNS enrichment (R)": 0.195}
{"Sequence": "UACUUGAAAAAAACAAGGCCAUAUGUAAAGAAAAAAAAAAACCCUCUUUCAAUGCCUAAGUGUCUUCUUCUAUCACUCCACACCCACAGUUGCCACUUGGGGUGCACAGA", "RBNS enrichment (R)": 0.437}
{"Sequence": "GCUAGGAUUGAUAUAGGAAUCAACCUAUGUGAUUUGCUUUAGGAGAAAUUAAAAGGUAUAUUCUUAAGAUAUAUUAUAUUUUGAUGCUAAUUCUGUUCUGGGGAGCAUCU", "RBNS enrichment (R)": 0.514}
{"Sequence": "UGUGCUAUCCGCAGGAACCGCGAGAUGGUCUAAGUCAGCUUACAUCCCUGAGCAGGAAAGUUUACCCAUGAAGAUUGGUGGGAUUUUUUGUUUGUUUGUUUUGUUUUGUU", "RBNS enrichment (R)": 1.53}
{"Sequence": "GCAAGGUGAGGAUUGGACUCGUGGGUGCCAGGAUCGGCUGGAGGACCUCCUGCCAAAGAGAGCUUUUGCUGAGCCGGGACACUUGCCUCUCCACACAGUGGCCCCAGCCG", "RBNS enrichment (R)": 0.504}
{"Sequence": "UCUCCCUUAGUAACUUGAAGGAAGCUUUGCAAGGGUGUUUCUCUGGAAUGGGUUCUGUGUUUGAAAGCUGUUAGAACACUAACCAGCAGGUUACUUCUCUCCGCAGGGGC", "RBNS enrichment (R)": 0.609}
{"Sequence": "UGAAUUUUGCAAAAUGGGAAAGUGGGCGCUUGCCCAAGGGCCAGGCUGCAUGGAUUCUCACAUCAGAGUUCUCUGGCCCUAGAAAGGCUUAGAAAAGGCGUAAGGGAACU", "RBNS enrichment (R)": 1.67}
{"Sequence": "CACCAGCCACACAGCGGUAGGGAUGAAAUAGUGACAUAAUAUAUUCUAUUUUUGUAACCUUCCUAUUUUGUAGCUCUGUUUAGAGAGAUGCUGGUUUUUGCCUGAAGGCC", "RBNS enrichment (R)": 0.55}
{"data": "Series 2", "target": "Ras GTPase-activating protein-binding protein 1, full length (G3BP1, Homo sapiens, UniProt Q13283)", "method": "RNA Bind-n-Seq", "molecule type": "RNA", "medium": "in vitro", "concentration": "200 nM", "setting": "whole 134-nt RNA, ends assumed", "with": "150 mM LiCl", "reference": "input library", "reading": "higher = stronger binding", "each molecule": "7-deaza-guanosine replaces G", "shared flanks, not repeated": "GGGAGUUCUACAGUCCGACGAUC … UGGAAUUCUCGGGUGUCAAGG", "chain of UniProt Q13283 (whole entry, looked up)": "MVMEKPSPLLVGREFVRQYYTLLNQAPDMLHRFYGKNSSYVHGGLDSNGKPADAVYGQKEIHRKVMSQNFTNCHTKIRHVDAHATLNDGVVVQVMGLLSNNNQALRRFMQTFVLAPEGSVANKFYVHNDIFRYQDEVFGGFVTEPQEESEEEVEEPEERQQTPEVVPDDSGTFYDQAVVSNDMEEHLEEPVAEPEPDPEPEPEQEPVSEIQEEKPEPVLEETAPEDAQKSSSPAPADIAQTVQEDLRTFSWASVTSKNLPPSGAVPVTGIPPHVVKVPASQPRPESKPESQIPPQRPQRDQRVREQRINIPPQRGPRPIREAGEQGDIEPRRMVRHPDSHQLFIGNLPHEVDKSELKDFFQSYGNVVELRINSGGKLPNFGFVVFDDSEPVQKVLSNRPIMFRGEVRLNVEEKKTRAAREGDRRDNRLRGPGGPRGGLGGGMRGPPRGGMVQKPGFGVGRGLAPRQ"}
{"Sequence": "UAACCUUAGAGGAGGAUCUGAUGGAUAUGGCAGUGGACGUGGAUUUGGGGAUGGCUAUAAUGGGUAUGGAGGAGGACCUGGAGGUGGCAA", "log2 enrichment": -0.0553}
{"Sequence": "GUCCUGUGCUACACAUCGUAUGUACCGAAUCGGGAAAAAAAGGGUUUGGGUUUUUGGGAAAGUAUUAUGUUACGCCGUUCGGAUCUGCAC", "log2 enrichment": -1.44}
{"Sequence": "UAACUUUAGAGGAGGAUCUGAUGGAUAUGGCAGUGGACGUGGAUUUGGGGAUGGCUAUAAUGGGUCUGGAGGAGGACCUGGAGGUGGCAA", "log2 enrichment": -0.324}
{"Sequence": "GCAGGAAGUAAAAAAAAAUGGAAAUGCUUCGGAUAGUGGCAGGGGUGGGGGUUGCUAAGGAAAGGGUGGGAUGGGAGUGGGUAAAGAGUU", "log2 enrichment": -0.168}
{"Sequence": "UGAAGACACAGCAUCCACCCGAUCUUCAUUCACUGUCCAAGACCUUAAACCUUUUACAGAAUAUGUGUUUAGGAUUCGCUGUAUGAAGGA", "log2 enrichment": -1.15}
{"Sequence": "AAGUCCUGUGCUACACAUCGUAUGUACCGAAUCGGAAAAAAAGGUUUUUUUGGUGGAAAGUAUUAUGUUACGCCGUUCGGAUCUGCACUU", "log2 enrichment": -2.23}
{"Sequence": "UGUCAGUAUCAUACAUAACAGAGGAAUGCCUGAAGAAGCUGGACACAAAGCAGCAGACCAACACCCUGCUCAACCUGGUGUGGAGGGACU", "log2 enrichment": -1.21}
{"Sequence": "UGGGAGGUGGAUUUUGUUUAUUUUUUUAGCUCAUUUCCAGGGGUGGGAAUUUUUUUUUAUUAUGUGUCAUGAAUAAAGUUGUUUUUGAAA", "log2 enrichment": -0.185}
{"data": "Series 3", "target": "Histone acetyltransferase KAT6A, winged helix 2, GST fusion (KAT6A, Homo sapiens, UniProt Q92794, residues 85-181)", "method": "protein binding microarray", "molecule type": "double-stranded DNA, one strand shown", "medium": "in vitro", "concentration": "not given", "setting": "8-mer, flanks averaged, mean of 2 arrays, mostly near background", "reference": "not given", "reading": "higher = stronger binding", "Construct (chain)": "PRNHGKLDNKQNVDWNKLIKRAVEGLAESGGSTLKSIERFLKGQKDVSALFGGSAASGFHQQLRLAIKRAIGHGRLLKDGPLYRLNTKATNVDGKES"}
{"Sequence": "CATACCAA", "E-score": -0.0491}
{"Sequence": "CGTACCTA", "E-score": -0.343}
{"Sequence": "AATTCTAT", "E-score": -0.0601}
{"Sequence": "AGGCTCTG", "E-score": -0.0175}
{"Sequence": "ACATAACA", "E-score": -0.0316}
{"Sequence": "GAGAAAAA", "E-score": 0.125}
{"Sequence": "ATCTTCAT", "E-score": 0.0225}
{"Sequence": "CTCGCATA", "E-score": -0.0677}
{"Sequence": "GCTTAAAA", "E-score": 0.184}
{"Sequence": "AGCCCCAT", "E-score": -0.079}
{"Sequence": "GAGAACCA", "E-score": -0.0102}
{"Sequence": "GACATGTA", "E-score": -0.142}
{"Sequence": "CAGTGGTA", "E-score": -0.16}
{"Sequence": "ATACCGTA", "E-score": -0.147}
{"Sequence": "AGGGTGCA", "E-score": -0.124}
{"Sequence": "CCTGAACA", "E-score": -0.0605}
{"Sequence": "AAGCTCAT", "E-score": -0.0664}
{"Sequence": "AGCCAACT", "E-score": -0.0396}
{"Sequence": "ATTCTCGG", "E-score": 0.0312}
{"Sequence": "GCAAGTCA", "E-score": -0.0728}
{"Sequence": "GAAAGTCA", "E-score": -0.118}
{"Sequence": "AATACAAA", "E-score": 0.141}
{"Sequence": "ATTCTTTG", "E-score": -0.0483}
{"Sequence": "TGACGTCA", "E-score": -0.0399}
{"Sequence": "ATCGAGTC", "E-score": -0.138}
{"data": "Series 4", "target": "CCNE2, cyclin fold, Cln2 fusion (human)", "method": "yeast growth competition, sequencing", "medium": "yeast", "setting": "weak parent motif", "reference": "not given", "reading": "higher = stronger binding", "starting sequence": "SAMHD1 docking peptide (human); ASKSRVQLFKDDP; partner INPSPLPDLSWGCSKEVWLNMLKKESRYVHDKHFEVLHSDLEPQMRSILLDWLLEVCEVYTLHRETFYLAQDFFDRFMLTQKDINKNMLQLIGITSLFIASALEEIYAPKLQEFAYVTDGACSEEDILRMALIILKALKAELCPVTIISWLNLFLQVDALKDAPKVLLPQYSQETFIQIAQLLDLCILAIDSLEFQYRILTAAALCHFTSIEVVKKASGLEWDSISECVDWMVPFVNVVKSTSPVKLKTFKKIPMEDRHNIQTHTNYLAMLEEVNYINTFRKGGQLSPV"}
{"Substitution": "ASKSRVQVFKDDP [L8V]", "normalised enrichment score": 0.00364}
{"Substitution": "ASKSRVQLFKDAP [D12A]", "normalised enrichment score": 0.325}
{"Substitution": "AAKSRVQLFKDDP [S2A]", "normalised enrichment score": 0.257}
{"Substitution": "ASKQRVQLFKDDP [S4Q]", "normalised enrichment score": 0.0823}
{"Substitution": "ASKSVVQLFKDDP [R5V]", "normalised enrichment score": 0.0419}
{"Substitution": "ASKSRVQLFKDVP [D12V]", "normalised enrichment score": 0.823}
{"Substitution": "ASKSRVTLFKDDP [Q7T]", "normalised enrichment score": 0.154}
{"Substitution": "ASKSRVQLFKTDP [D11T]", "normalised enrichment score": 0.576}
{"Substitution": "ASKSRVQLFIDDP [K10I]", "normalised enrichment score": -0.0473}
{"Substitution": "ASHSRVQLFKDDP [K3H]", "normalised enrichment score": 0.234}
{"Substitution": "ASKSRVQLFKWDP [D11W]", "normalised enrichment score": -0.142}
{"Substitution": "ASKSRVQLFKDTP [D12T]", "normalised enrichment score": 0.317}
{"Substitution": "ASKSRVKLFKDDP [Q7K]", "normalised enrichment score": 0.183}
{"Substitution": "ASKSYVQLFKDDP [R5Y]", "normalised enrichment score": 0.113}
{"Substitution": "ASKIRVQLFKDDP [S4I]", "normalised enrichment score": 0.803}
{"Substitution": "ASKTRVQLFKDDP [S4T]", "normalised enrichment score": 0.217}
{"Substitution": "ASKSDVQLFKDDP [R5D]", "normalised enrichment score": -0.221}
{"Substitution": "AMKSRVQLFKDDP [S2M]", "normalised enrichment score": 0.00249}
{"Substitution": "ASKSRVQLFKLDP [D11L]", "normalised enrichment score": 0.166}
{"Substitution": "ASKSRVPLFKDDP [Q7P]", "normalised enrichment score": -0.00992}
{"Substitution": "ASKSRVQLFKADP [D11A]", "normalised enrichment score": 0.574}
{"Substitution": "ASKSRVQLHKDDP [F9H]", "normalised enrichment score": 0.0892}
{"Substitution": "ASKSRVQLFKDEP [D12E]", "normalised enrichment score": 0.456}
{"Substitution": "ASKSSVQLFKDDP [R5S]", "normalised enrichment score": -0.2}
{"Substitution": "ASKSRVQLFKDYP [D12Y]", "normalised enrichment score": 0.88}
{"note": "A few entries again (series 4):"}
{"Substitution": "ASKSYVQLFKDDP [R5Y]", "normalised enrichment score": 0.113}
{"Substitution": "ASKSRVQLFKADP [D11A]", "normalised enrichment score": 0.574}
{"Substitution": "ASKSRVPLFKDDP [Q7P]", "normalised enrichment score": -0.00992}
{"Substitution": "ASKSRVQLFKLDP [D11L]", "normalised enrichment score": 0.166}
{"Substitution": "ASKSRVQLFKTDP [D11T]", "normalised enrichment score": 0.576}
{"Substitution": "ASKSVVQLFKDDP [R5V]", "normalised enrichment score": 0.0419}
{"Substitution": "ASKSRVQVFKDDP [L8V]", "normalised enrichment score": 0.00364}
